Measured values collected from several papers.
Every numbered part comes from another study and shows a few of its results, in no order.

Block 1
Target: Ras GTPase-activating protein-binding protein 1, full length (G3BP1, Homo sapiens, UniProt Q13283)
UniProt Q13283, sequence (whole entry, looked up): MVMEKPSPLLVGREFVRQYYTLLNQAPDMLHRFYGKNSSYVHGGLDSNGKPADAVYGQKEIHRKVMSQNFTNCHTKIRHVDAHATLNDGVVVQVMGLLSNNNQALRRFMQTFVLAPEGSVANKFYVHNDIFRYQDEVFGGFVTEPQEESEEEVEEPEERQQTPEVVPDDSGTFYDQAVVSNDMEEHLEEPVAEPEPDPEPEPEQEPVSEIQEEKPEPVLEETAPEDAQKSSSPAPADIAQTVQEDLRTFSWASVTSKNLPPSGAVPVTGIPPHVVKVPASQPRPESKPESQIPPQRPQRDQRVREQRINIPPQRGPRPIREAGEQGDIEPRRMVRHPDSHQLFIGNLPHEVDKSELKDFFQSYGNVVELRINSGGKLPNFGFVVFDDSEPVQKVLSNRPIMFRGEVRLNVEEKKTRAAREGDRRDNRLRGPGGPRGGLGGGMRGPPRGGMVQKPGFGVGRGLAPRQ
Technique: RNA Bind-n-Seq
Form: RNA
Medium: in vitro
Tested at: 200 nM
Setting: whole 134-nt RNA, ends assumed
With: 150 mM LiCl
Relative to: input library
Reading: higher = stronger binding
Library: 7-deaza-guanosine replaces G
All sequences stand within: GGGAGUUCUACAGUCCGACGAUC … UGGAAUUCUCGGGUGUCAAGG
`ACCAUGCAGGUGGGCAUCUUUGGGAAGUGGGGCAAGGGGGGGAUAGGGAGGGGGGUAACAGUUUGGGAACAGGUGGUCCCAGGUCGUUUC` gave a log2 enrichment of 0.126.
With `UGGCCCUGGUGGCAUGCGGGGAGGAAGAGUUGGCCUCAUGGAUCGUGGUGGUCCCGGUGGAAUGUUCAGAGGUGGCCGUGGUGGAGACAG` the log2 enrichment was 0.161.
With `AGUCCUGUGCUACACAUCGUAUGUACCGAAUCGGGAGGGAAAAAAAGGGAAAAAGGGAAAGUAUUAUGUUACGCCGUUCGGAUCUGCACU` the log2 enrichment was -0.417.
`GCAGGAAGUAAAAACAAAUGGAAAUGCUUCGGAUAGUCGCAGGGGUGGGGGUUGCUAAGGAAAGGGUGGGAUGGGAGUGGGUAAAGAGUU` gave a log2 enrichment of 0.829.
`UGGGAGGUGGAUUUUGUUUAUUUUUUUAGCUCAUUUCCAGGGGUGGGAAUUGUUUUUUAAUAUGUGUCAUGAAUAAAGUUGUUUUUGAAA` gave a log2 enrichment of -0.369.
The log2 enrichment of `UAUUGAUGCAUUUGACCCUACACUGGCUCCAGCCACAGGAACUCCUGUUGUCGGGGGACUAACCUAUCGAGAAGGCAUGUAUAUUGCUGA` is reported as 0.334.
For `CCUGUGCUACACAUCGUAUGUACCGAAUCGGGUUUUUUUGGGUUUUUGGGUUUUUUUGGGAAAGUAUUAUGUUACGCCGUUCGGAUCUGC`, the log2 enrichment was 0.153.
`GUAGGAAGUAAAAACAAAUGGAAAUGCUUCGGAUAGUGGCAGGGGUGGGGGUUGCUAAGGAAAGGGUGGGAUGGGAGUGGGUAAAGAGUU` gave a log2 enrichment of 0.239.

Block 2
Target: Hepatocyte nuclear factor 3-alpha (Foxa1, Mus musculus, UniProt P35582, residues 1-468, full length assumed)
Technique: EMSA with sequencing
Form: double-stranded DNA, one strand shown
Medium: in vitro
Tested at: 10 and 20 nM
Setting: whole designed probe, mean of two concentrations, ends assumed
Relative to: negative control set to 0
Reading: higher = stronger binding
All sequences stand within: GTGAGCGGTGCCCATTGATGGGGAAC … TTTCACTGGGATCGTGGGGAC
Construct (chain): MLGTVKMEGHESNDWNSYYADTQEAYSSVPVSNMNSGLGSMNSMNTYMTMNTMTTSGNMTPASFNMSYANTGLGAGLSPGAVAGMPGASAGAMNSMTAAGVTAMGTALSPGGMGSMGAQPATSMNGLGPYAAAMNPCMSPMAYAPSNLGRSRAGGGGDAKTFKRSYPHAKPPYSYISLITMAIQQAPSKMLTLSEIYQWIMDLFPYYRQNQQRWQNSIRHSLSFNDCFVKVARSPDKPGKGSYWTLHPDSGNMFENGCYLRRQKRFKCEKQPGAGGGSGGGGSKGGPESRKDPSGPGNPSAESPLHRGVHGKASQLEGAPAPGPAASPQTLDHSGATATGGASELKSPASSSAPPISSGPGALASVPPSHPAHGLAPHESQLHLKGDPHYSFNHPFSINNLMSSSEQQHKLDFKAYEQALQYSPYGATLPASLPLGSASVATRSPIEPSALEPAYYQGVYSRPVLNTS
`AAATTGGACACTAGGTGAAAATTCAAGCCTAATCGCTAAAGATTAAGAAAGACGCAATAACCACATTATTGGGGAAAAAAAAGCAAATCTCAGAGTAAACAGGAAGAAATGTTCTTTCTTATTTTTCCCAAAGAACCAGCTCTTTAAAATTGAGTTTTTAGATGATAATTTCATGCTTGGTAATACCCACGTG` — result for “normalised bound fraction”: 0.0346 ratio.
`CGGCCTGCTTGCGTGTGCAAGTCCACGGGCACACGTCCTGCCTTCATGTCTTGGACTTTAAACACCCTGGGCAGCTGGCCAGGCCTTGGTTTTGTTTGCAGAGTTGCCTAATCTAATATTGGTATTTAGCAAACAAAGCCCAAACAAGGGAGAAGTAGGCCCCTCTTGCCTCTTCTGAGCTTCCAGGGCTCTC` — result for “normalised bound fraction”: 0.401 ratio.
Under “normalised bound fraction”, `CAGCCTGCAGTGCGCTCAGTTAAACAATTCCAAATCAAGGAATTTTGTCTGATACAAGGAATTTGGGGTGTGTTTTCCTAACATGCACCCTGGGTAAATAGACTGCATTTCCTGACGGGGGGGGGGCCCAGCTGAAGCCAATATGCATTGCGGCCACAAGGTGGCGCGTCTGGGCCTGGCAAACCCCTGTGCT` is recorded as 0.263 ratio.
`ATGATCCAATTAAAAACAAAACAACAGCAACAACAAAAAAACAGACCTGGAAAACTTACTACACAGGCTCTGTGTAGTACGACAGAAAAGAAAAGTAATCTAGAATTTTTTAAAGGCATATAGGACTAGATATATGTAATTTGTTTTCTGAAATCCAACTCTTTCTTGTCCCTTTAGAAACATCTTCTCTATC` — result for “normalised bound fraction”: -0.00191 ratio.
Under “normalised bound fraction”, `GGACACAGCCAGAGGCCATGAGTGCTCAGGAGTGCCATAAACTGTGATTTTGAGACTGATAAGGCCAGGCTAAATAGCTTGCTGCGTCTGTCTTGTTTGCCTTTTTATATTTGAGGCCTATAAAAAAATAGTGAGAAAATAGCAAGATGCCCAGGAGACAGGTGATCTGATTCAGCCAGGGGGTGGGAGGTGG` is recorded as 0.0926 ratio.

Block 3
Target: RNA binding protein fox-1 homolog 2, RRM domain, GST-SBP tag (RBFOX2, Homo sapiens, UniProt O43251-10, residues 100-194)
Technique: RNA Bind-n-Seq
Form: RNA
Medium: in vitro
Tested at: 365 nM
Setting: natural RNA segment, single round, ends assumed
Relative to: no-protein control
Reading: higher = stronger binding
All sequences stand within: GGGAGUUCUACAGUCCGACGAUC … UGGAAUUCUCGGGUGCCAA
Residues (chain): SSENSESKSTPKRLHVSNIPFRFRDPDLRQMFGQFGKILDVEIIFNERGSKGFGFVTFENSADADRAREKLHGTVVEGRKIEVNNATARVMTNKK
`ACCUCUUUAAAAACUCACUUACGUUUGUCCUUUUUCACUUUGAAAAGUUGGAAGGAUCUGCUGAGGCCCAGUGCAUAUGCAAUGUAUAGUGUCUAUUAUCACAUUAAUCU`: “RBNS enrichment (R)” 0.363.
`CACAUCCAUUGACUGACCCCCUCCUCCAGCAAUAGCAUCCAAGGGGCCUGGAAGUUAUGUUGUUCAAAGAAGCCUGGUGGCAAUAAGGAUCUUCCCACUUUGCCACUGGA` — result for “RBNS enrichment (R)”: 0.382.
`AAGGGCUCAGGAAGUUGCUCCAAGAACAGUAGCUGAUGAAGCUGCCCAGAAGUGCCUUGGCUCCAGCCCUGUACCCCUUGGUACUGCCUCUGAACACUCUGGUUUCCCCA` — result for “RBNS enrichment (R)”: 0.27.
`AAAGGGGAUGCCCAGUGGUUUCCCUUUGCUUCCCAACCUAAAAUUUCAAGUUUAAUAAAAUAGCAAUUAGCAGAAGUGACCAAAUUGGGAGAUAAUUAUCAGUCAUGAGG` — result for “RBNS enrichment (R)”: 0.291.
`CCAGGAUGGUCUCGAUCUCCUGACCUUGUGAUCCACCCGCCUCAGCCUCCCAAAGUGCUGAGAUUACAGGCGUGAGCCACCGCGCCUGGCCUAUUUCCAGUUUUAUGUGA`: “RBNS enrichment (R)” 0.308.
`GAUUUUGCUGAGCUGCAAAGGUAUCUGUCAUAAAAUAUGGUCCCCAGGAAAAGAAUCUCUGUGCUCUAAAUCUCGGUCAGAGCUGUGGCCUCCCCCUUGCCUUUAACCUC`: “RBNS enrichment (R)” 0.448.
`CAGACUUGUUCACUCCAUUCAAUUAUGUCCUGAGCCUUGAAACUGUUUUAUUUAACCAUGGGGUAGGCUGGGGUGAUGUUUCAGUUUUCAAGGGACAGAAGCAAGACAAA`: “RBNS enrichment (R)” 0.532.
`UGGAGUCAGGUGGGCCCACGUAGGACAGGGUCACAAAGCCUGGGUUUGUUUCUGGGUACUUUGCGCCUCUGGGGUGCUAGAGGUGGGGCAUGGUGGCUGGAAGUAAAACU`: “RBNS enrichment (R)” 0.741.

Block 4
Target: Interferon regulatory factor 7, full length, phosphomimetic (IRF7, Homo sapiens, UniProt Q92985, residues 1-503, S101K/S471D/S472D/S475D/S476D/S477D/S483D/S484D/S487D)
Technique: protein-binding microarray
Form: double-stranded DNA, one strand shown
Medium: in vitro
Tested at: 250 nM
Setting: 60-bp whole probe
With: salmon DNA 0.4 mg/ml
Relative to: random background probes
Reading: higher = stronger binding
All sequences stand within: GCCTAGCAC … GTCTTGATTCGCTTGACGCTGCTG
Construct (chain): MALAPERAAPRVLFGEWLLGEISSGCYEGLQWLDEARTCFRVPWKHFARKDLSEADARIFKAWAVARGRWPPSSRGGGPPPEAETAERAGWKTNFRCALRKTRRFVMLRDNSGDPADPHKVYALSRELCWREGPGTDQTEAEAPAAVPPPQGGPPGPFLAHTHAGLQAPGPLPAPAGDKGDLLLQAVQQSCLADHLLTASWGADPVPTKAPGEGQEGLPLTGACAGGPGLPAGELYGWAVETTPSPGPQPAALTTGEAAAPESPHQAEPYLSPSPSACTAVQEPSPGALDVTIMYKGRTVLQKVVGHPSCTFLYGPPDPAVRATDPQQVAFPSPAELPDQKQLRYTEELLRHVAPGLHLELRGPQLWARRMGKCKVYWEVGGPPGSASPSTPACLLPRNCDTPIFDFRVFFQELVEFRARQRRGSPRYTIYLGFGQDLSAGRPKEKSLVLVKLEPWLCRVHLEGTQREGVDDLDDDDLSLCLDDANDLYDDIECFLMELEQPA
`TTAGGTTTCGACTTTAGGTTAGTGCTA` gave a log fluorescence of 10 z-score.
`GACGAACTGAGAATGGAGACGTGCTAG` has a log fluorescence of 0.213 z-score.
The log fluorescence of `TTACGTATCGGGTTTCGGTTAGTGCTA` is reported as 6.32 z-score.
`GACGGTGTCCTTTCCCTGACGTGCTAG` has a log fluorescence of -0.0834 z-score.
The log fluorescence of `GAGGCTTTTTTTTTTTTTTTGTGCTAG` is reported as -0.361 z-score.
`ATTTGTAAGTACATTAACTCGTGCTAG` gave a log fluorescence of 0.175 z-score.
For `TACGATCTCAGTTTCGAGACGTGCTAG`, the log fluorescence was 3.93 z-score.
For `TCAAAGATTTTTATCAAACTGTGCTAG`, the log fluorescence was -0.0471 z-score.
For `TCATTTCTCAAATGTTTTACTGTGCTA`, the log fluorescence was 1.74 z-score.
The log fluorescence of `GACGGTTTAGGGACTGGGGACGTGCTA` is reported as -0.172 z-score.
With `GACGATCTCAGTATCGAGAGGTGCTAG` the log fluorescence was -0.189 z-score.
With `TTAGGTCTCGGACTGGATTAGTGCTAG` the log fluorescence was 0.265 z-score.
`ATAGGTTTCTATATTTGCTTGTGCTAG` gave a log fluorescence of 3.03 z-score.
`TACGGTTTCGACTATCGGGACGTGCTA` gave a log fluorescence of 5.77 z-score.
`TTAGATATCGACTATCGGTTAGTGCTA` gave a log fluorescence of -0.054 z-score.
With `GACGGTATCGACTATGGGGACGTGCTA` the log fluorescence was -0.00467 z-score.
`GAAGGACTGGGTATCGGGACGTGCTAG` gave a log fluorescence of -0.302 z-score.
The log fluorescence of `TCAAGAGTAGCTTTCTGACTGTGCTAG` is reported as -0.606 z-score.
With `GACAGTTTCGGTCTCGGGACGTGCTAG` the log fluorescence was 7.06 z-score.

A few entries again (block 4):
`TTAGGTTTCGACTTTAGGTTAGTGCTA` gave a log fluorescence of 10 z-score.
`GACGAACTGAGAATGGAGACGTGCTAG` has a log fluorescence of 0.213 z-score.
The log fluorescence of `TTACGTATCGGGTTTCGGTTAGTGCTA` is reported as 6.32 z-score.
`GACGGTGTCCTTTCCCTGACGTGCTAG` has a log fluorescence of -0.0834 z-score.
The log fluorescence of `GAGGCTTTTTTTTTTTTTTTGTGCTAG` is reported as -0.361 z-score.
`ATTTGTAAGTACATTAACTCGTGCTAG` gave a log fluorescence of 0.175 z-score.
